Results gathered from unrelated publications.
Parts stem from different laboratories: compare values within a part only. Changes are numbered by the printed parent chain.
Sequence of UniProt Q84WU6 (whole entry, looked up): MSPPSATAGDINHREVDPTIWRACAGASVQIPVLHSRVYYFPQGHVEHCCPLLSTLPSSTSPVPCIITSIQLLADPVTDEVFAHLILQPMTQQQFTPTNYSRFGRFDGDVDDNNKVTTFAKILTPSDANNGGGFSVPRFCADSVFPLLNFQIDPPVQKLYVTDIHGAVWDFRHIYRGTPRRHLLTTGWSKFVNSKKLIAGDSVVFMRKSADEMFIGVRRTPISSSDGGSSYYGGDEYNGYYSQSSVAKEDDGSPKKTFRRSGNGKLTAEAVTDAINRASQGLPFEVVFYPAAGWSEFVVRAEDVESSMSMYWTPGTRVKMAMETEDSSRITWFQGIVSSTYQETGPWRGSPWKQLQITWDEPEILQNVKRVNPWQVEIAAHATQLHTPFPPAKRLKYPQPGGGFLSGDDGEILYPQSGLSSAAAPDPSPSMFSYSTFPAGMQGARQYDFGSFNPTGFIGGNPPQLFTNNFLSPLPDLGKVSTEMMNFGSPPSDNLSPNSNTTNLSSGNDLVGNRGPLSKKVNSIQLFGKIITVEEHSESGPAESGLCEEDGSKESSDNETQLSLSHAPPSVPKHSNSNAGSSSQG
Sequence of UniProt Q9C8N7 (whole entry, looked up): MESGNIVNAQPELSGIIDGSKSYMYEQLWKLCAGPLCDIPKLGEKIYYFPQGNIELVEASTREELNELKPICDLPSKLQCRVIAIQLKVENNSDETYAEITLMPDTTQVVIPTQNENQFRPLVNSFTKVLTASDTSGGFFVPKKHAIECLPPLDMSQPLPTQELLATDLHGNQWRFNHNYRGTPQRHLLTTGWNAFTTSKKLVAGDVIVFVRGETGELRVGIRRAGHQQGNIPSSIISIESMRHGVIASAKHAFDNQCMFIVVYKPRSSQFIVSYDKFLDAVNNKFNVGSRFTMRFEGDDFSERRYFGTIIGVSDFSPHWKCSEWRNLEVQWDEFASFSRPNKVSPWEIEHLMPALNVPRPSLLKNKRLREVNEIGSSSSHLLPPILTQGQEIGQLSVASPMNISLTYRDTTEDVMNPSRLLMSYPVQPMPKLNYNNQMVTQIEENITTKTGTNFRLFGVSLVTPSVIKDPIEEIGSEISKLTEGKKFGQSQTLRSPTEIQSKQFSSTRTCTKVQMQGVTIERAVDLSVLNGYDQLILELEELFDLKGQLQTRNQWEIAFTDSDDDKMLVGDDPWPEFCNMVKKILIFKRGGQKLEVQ

Study 1
Target: Sal-like protein 4, full length isoform A (SALL4, Homo sapiens, UniProt Q9UJQ4, residues 1-1053)
Sequence of UniProt Q9UJQ4 (whole entry, looked up): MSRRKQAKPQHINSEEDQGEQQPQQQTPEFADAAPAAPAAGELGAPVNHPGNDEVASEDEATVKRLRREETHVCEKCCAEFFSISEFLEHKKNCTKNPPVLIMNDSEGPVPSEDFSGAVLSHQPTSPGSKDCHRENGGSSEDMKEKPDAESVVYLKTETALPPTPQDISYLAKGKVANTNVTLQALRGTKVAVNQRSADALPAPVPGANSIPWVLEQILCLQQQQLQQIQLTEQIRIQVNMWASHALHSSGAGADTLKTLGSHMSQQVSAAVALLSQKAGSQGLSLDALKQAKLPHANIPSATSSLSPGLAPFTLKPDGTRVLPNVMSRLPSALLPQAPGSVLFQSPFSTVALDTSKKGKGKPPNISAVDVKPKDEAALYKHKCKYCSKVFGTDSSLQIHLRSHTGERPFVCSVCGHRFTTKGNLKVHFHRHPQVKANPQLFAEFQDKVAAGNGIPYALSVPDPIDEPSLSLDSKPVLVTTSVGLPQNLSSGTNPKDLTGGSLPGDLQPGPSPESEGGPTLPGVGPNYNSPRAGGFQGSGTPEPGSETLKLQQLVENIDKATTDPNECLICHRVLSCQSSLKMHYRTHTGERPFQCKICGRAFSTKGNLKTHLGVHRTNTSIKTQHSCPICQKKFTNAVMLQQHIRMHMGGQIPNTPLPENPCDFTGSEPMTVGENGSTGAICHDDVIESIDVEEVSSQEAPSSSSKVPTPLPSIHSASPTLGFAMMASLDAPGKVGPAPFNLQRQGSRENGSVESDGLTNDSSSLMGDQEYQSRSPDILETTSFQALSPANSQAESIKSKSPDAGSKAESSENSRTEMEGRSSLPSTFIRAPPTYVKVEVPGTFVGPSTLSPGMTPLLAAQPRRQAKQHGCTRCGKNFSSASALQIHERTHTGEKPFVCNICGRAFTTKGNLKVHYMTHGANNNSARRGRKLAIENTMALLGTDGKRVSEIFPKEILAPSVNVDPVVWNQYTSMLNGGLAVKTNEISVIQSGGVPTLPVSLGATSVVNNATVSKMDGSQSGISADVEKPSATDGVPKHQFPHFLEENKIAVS
Method: universal PBM
Molecule type: double-stranded DNA, one strand shown
Medium: in vitro
Concentration: 600 nM
Notes: 8-mer, flanks averaged, mean of replicates
Direction: higher = stronger binding
With `AACAGTGG` the E-score was -0.252.
With `GAACGAGC` the E-score was 0.0172.
`ATCCTAGG` has an E-score of -0.173.
`ACGATACG` gave an E-score of 0.0646.
`AACGTACC` gave an E-score of -0.203.
`CATCTCGG` gave an E-score of -0.0456.
With `AGACCGAC` the E-score was -0.229.
The E-score of `CACTTCAG` is reported as -0.0445.

Study 2
Target: Eukaryotic initiation factor 4A-I (EIF4A1, Homo sapiens, UniProt P60842, residues 1-406, full length assumed)
Sequence of UniProt P60842 (whole entry, looked up): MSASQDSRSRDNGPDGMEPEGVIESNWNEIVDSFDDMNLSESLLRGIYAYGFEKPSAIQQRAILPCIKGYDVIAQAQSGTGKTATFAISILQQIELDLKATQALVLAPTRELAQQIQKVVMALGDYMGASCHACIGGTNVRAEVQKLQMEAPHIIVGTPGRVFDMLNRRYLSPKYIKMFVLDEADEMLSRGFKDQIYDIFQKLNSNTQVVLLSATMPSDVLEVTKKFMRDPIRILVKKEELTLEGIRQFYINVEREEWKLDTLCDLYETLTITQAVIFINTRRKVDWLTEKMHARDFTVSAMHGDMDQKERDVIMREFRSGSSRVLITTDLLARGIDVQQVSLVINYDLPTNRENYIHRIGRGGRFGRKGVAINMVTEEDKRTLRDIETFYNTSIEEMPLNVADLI
Method: RNA Bind-n-Seq
Molecule type: RNA
Medium: in vitro
Concentration: 90 pmol
Notes: 4-mer, random 30-nt RNA, single round
Added: 3 µM iPr-DMDA-PatA, 2 mM ADP, 2 mM phosphate
Baseline: input library
Direction: higher = stronger binding
`UCCC` has a 4-mer enrichment of 0.997 fold.
For `ACGU`, the 4-mer enrichment was 1.01 fold.
The 4-mer enrichment of `CAUU` is reported as 1 fold.
For `CUUU`, the 4-mer enrichment was 0.979 fold.
`AGAA` gave a 4-mer enrichment of 1.53 fold.
The 4-mer enrichment of `UGAG` is reported as 1.06 fold.
With `AGCC` the 4-mer enrichment was 0.935 fold.
With `AUGC` the 4-mer enrichment was 0.922 fold.

Study 3
Target: HLA class I histocompatibility antigen, A alpha chain, allele A*80:01 (Homo sapiens, UniProt P04439)
Read-out: peptide-MHC binding
Molecule type: peptide
Concentration: concentration not given
`SMRSRARHI` — result for binding: “inactive”.
Under binding, `YTMDGEYRL` is recorded as “inactive”.
`DFISMYFPW` — result for binding: “inactive”.

Study 4
Target: Microphthalmia-associated transcription factor, full length (MITF, Homo sapiens, UniProt O75030-10, residues 1-413)
Method: protein-binding microarray
Molecule type: hairpin DNA
Medium: in vitro
Concentration: not given
Notes: whole hairpin DNA, median over replicate spots
Baseline: not given
Direction: higher = stronger binding
The median fluorescence of `CACTTAGCACGTGCGTTTGGTCCTCCAAACGCACGTGCTAAGTGACACTC` is reported as 20200 a.u.
With `CACTTACCACGTGATTTTGGTCCTCCAAAATCACGTGGTAAGTGACACTC` the median fluorescence was 25600 a.u.
`GAGGCCTCGCACGTGCTGCCTCCTGGCAGCACGTGCGAGGCCTCACACTC` gave a median fluorescence of 19400 a.u.
The median fluorescence of `CACTTAGCACGTGTTTTTGGTCCTCCAAAAACACGTGCTAAGTGACACTC` is reported as 20000 a.u.
For `CACTTAGAACGTGATTTTGGTCCTCCAAAATCACGTTCTAAGTGACACTC`, the median fluorescence was 8550 a.u.
With `GAGGCCTACGACGTGCTGCCTCCTGGCAGCACGTCGTAGGCCTCACACTC (5mC at 9)` the median fluorescence was 6300 a.u.
With `CACTTAGCACGTGAATTTGGTCCTCCAAATTCACGTGCTAAGTGACACTC` the median fluorescence was 20800 a.u.
`CACTTAGCACGTCGTTTTGGTCCTCCAAAACGACGTGCTAAGTGACACTC` has a median fluorescence of 5260 a.u.

Study 5
Target: CCND1, cyclin fold, Cln2 fusion (human)
Method: yeast growth competition, sequencing
Medium: yeast
Notes: strong parent motif
Baseline: not given
Direction: higher = stronger binding
Starting sequence: viral docking peptide; KGVKRKLFAEDSS; partner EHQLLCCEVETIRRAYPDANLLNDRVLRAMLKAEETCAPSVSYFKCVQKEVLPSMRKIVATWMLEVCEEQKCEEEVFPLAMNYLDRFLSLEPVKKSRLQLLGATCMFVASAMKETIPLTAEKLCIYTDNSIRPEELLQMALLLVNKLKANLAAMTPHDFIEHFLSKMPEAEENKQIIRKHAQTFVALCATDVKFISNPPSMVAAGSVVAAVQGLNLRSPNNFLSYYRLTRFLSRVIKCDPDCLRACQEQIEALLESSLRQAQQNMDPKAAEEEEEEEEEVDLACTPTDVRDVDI
`KGVKRKLFAPDSS [E10P]` — result for “normalised enrichment score”: 0.611.
Under “normalised enrichment score”, `KGVKRKLFAGDSS [E10G]` is recorded as 0.493.
For `KGVKRKLFAEDCS [S12C]`, “normalised enrichment score” read 1.65.
`KGVKRKLFAERSS [D11R]` — result for “normalised enrichment score”: 0.231.
Under “normalised enrichment score”, `KIVKRKLFAEDSS [G2I]` is recorded as 0.872.
For `KTVKRKLFAEDSS [G2T]`, “normalised enrichment score” read 1.67.
Under “normalised enrichment score”, `KGVKRKLFAIDSS [E10I]` is recorded as 0.335.
`KGVKRKLFAEYSS [D11Y]`: “normalised enrichment score” 0.598.
Under “normalised enrichment score”, `KGVKRKLMAEDSS [F8M]` is recorded as -0.0822.
`KGVKRKLSAEDSS [F8S]` — result for “normalised enrichment score”: -0.439.
`KGVKNKLFAEDSS [R5N]` — result for “normalised enrichment score”: -0.125.
`KGVKRKLFAEDRS [S12R]`: “normalised enrichment score” 0.867.
Under “normalised enrichment score”, `KMVKRKLFAEDSS [G2M]` is recorded as 1.31.
Under “normalised enrichment score”, `KGVKRKLFAEESS [D11E]` is recorded as 1.78.
`KGVKRKGFAEDSS [L7G]` — result for “normalised enrichment score”: 0.23.
Under “normalised enrichment score”, `KGVKRKLFAEDGS [S12G]` is recorded as 1.33.
For `KGVKRKLYAEDSS [F8Y]`, “normalised enrichment score” read -0.187.
`KGVLRKLFAEDSS [K4L]`: “normalised enrichment score” 0.271.
For `KGVKRKEFAEDSS [L7E]`, “normalised enrichment score” read 0.24.
Under “normalised enrichment score”, `KGVKDKLFAEDSS [R5D]` is recorded as 0.0537.
`KGVKRKLFFEDSS [A9F]`: “normalised enrichment score” 1.66.
For `KGVKRKLFAQDSS [E10Q]`, “normalised enrichment score” read 0.338.
Under “normalised enrichment score”, `KGVKRKLFAEDMS [S12M]` is recorded as 0.967.
For `KGVKRKLFAEPSS [D11P]`, “normalised enrichment score” read 0.649.
Under “normalised enrichment score”, `KGVKRKHFAEDSS [L7H]` is recorded as -0.0523.

Mixed results
The positive tests of `ARF17 (Arabidopsis thaliana, UniProt Q84WU6)` is reported as 1 (ARF22 498-598 (Arabidopsis thaliana, UniProt Q9C8N7); two-hybrid; weak activation fusion; baseline: out of 4 tests, higher = firmer interaction).
The inhibition of `Br.COc1ccc2c(c1)[C@]13CCCC[C@@H]1[C@H](C2)N(C)CC3` is reported as -22.7% (Sarcocystis neurona; parasite growth; 10 µM).

Excerpt of the above (study 5):
For `KGVKRKLYAEDSS [F8Y]`, “normalised enrichment score” read -0.187.
`KGVKRKLFAERSS [D11R]` — result for “normalised enrichment score”: 0.231.
Under “normalised enrichment score”, `KGVKRKLFAEESS [D11E]` is recorded as 1.78.
For `KGVKRKLFAEPSS [D11P]`, “normalised enrichment score” read 0.649.
For `KTVKRKLFAEDSS [G2T]`, “normalised enrichment score” read 1.67.
For `KGVKRKLFAQDSS [E10Q]`, “normalised enrichment score” read 0.338.
For `KGVKRKEFAEDSS [L7E]`, “normalised enrichment score” read 0.24.
Under “normalised enrichment score”, `KGVKDKLFAEDSS [R5D]` is recorded as 0.0537.
